Experimental data from different studies.
Each numbered part is a random draw from the data of one study; scales do not carry over between parts.
Sequence of UniProt P53355 (whole entry, looked up): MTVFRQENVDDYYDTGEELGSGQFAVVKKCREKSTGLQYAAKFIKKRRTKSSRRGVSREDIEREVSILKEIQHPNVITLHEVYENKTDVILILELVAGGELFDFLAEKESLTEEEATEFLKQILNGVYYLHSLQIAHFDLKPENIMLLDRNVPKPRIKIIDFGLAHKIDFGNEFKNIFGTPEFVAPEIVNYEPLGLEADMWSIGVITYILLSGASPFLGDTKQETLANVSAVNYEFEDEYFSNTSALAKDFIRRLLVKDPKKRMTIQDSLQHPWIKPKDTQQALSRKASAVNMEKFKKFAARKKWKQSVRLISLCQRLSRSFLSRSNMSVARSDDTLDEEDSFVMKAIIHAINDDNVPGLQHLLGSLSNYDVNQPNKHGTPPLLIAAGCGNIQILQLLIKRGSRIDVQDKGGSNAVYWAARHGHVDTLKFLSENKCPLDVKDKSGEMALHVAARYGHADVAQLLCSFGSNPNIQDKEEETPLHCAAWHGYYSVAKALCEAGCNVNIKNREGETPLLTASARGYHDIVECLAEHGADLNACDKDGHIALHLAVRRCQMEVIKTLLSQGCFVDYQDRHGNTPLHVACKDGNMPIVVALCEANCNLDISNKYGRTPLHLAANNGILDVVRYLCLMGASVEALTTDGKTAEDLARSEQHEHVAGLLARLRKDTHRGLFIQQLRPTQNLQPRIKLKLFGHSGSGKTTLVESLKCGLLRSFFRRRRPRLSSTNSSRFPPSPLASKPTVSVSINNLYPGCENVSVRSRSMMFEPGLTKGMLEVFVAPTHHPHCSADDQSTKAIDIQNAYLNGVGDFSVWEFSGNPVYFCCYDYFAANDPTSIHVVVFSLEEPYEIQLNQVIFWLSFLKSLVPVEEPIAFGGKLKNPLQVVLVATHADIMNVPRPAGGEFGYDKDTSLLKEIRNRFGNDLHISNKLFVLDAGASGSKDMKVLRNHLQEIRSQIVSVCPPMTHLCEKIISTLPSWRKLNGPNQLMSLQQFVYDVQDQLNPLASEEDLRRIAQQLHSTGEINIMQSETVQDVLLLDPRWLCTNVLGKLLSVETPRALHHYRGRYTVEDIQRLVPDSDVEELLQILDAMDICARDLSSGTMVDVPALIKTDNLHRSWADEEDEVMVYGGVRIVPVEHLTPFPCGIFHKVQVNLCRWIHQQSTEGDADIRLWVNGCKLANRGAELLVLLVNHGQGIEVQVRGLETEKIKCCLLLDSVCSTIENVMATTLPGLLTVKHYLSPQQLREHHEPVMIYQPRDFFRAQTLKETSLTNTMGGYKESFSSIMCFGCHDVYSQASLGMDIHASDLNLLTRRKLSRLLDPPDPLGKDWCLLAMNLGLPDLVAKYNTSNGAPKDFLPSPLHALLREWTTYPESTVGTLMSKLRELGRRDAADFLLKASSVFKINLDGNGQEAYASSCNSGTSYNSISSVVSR
Sequence of UniProt Q16659 (whole entry, looked up): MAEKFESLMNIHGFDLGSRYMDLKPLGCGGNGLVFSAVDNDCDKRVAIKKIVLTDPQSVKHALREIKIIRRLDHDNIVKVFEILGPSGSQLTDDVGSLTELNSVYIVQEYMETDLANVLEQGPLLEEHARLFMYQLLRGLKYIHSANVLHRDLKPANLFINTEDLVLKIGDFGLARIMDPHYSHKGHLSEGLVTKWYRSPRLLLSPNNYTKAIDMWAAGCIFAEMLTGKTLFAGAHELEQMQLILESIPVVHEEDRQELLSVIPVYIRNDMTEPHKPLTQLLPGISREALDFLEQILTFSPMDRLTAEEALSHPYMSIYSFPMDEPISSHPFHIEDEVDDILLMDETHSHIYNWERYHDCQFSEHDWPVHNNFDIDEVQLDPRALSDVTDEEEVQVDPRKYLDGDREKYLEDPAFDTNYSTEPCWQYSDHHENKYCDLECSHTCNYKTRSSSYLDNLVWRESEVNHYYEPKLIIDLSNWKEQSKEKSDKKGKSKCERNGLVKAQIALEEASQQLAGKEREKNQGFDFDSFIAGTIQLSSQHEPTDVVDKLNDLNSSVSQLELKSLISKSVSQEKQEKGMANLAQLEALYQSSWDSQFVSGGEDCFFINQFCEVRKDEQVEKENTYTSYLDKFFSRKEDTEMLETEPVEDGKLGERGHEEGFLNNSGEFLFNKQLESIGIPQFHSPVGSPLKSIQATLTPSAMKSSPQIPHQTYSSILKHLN
Sequence of UniProt Q14164 (whole entry, looked up): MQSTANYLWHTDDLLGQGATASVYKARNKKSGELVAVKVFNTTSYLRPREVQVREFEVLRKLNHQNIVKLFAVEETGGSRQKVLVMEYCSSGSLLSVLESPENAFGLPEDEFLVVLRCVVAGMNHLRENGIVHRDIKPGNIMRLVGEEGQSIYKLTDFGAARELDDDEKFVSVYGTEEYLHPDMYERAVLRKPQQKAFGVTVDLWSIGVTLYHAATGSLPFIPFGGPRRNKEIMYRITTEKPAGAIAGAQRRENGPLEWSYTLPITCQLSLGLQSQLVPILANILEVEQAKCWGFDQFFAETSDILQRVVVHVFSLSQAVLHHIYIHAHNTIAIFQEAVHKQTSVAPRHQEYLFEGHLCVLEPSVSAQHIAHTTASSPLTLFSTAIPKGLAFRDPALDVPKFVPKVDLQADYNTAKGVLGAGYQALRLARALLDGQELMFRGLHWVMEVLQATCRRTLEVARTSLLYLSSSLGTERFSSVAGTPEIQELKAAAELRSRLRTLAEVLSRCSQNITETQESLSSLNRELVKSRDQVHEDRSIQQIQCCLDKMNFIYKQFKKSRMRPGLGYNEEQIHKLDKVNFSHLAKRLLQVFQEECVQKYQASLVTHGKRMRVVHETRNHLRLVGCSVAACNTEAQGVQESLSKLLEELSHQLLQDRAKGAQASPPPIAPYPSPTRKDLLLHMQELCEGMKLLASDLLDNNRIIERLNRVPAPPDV
Sequence of UniProt P45984 (whole entry, looked up): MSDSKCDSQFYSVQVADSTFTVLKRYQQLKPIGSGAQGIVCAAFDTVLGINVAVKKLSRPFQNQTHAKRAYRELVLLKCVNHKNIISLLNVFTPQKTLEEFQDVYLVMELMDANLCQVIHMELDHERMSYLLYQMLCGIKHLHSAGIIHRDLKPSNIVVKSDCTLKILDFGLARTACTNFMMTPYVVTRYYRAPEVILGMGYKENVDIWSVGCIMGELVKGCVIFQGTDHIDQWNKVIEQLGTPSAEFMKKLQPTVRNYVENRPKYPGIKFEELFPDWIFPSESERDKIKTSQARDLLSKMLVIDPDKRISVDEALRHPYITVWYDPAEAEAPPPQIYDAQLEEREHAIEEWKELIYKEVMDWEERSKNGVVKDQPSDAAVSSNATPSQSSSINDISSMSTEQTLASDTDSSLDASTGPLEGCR
Sequence of UniProt P48736 (whole entry, looked up): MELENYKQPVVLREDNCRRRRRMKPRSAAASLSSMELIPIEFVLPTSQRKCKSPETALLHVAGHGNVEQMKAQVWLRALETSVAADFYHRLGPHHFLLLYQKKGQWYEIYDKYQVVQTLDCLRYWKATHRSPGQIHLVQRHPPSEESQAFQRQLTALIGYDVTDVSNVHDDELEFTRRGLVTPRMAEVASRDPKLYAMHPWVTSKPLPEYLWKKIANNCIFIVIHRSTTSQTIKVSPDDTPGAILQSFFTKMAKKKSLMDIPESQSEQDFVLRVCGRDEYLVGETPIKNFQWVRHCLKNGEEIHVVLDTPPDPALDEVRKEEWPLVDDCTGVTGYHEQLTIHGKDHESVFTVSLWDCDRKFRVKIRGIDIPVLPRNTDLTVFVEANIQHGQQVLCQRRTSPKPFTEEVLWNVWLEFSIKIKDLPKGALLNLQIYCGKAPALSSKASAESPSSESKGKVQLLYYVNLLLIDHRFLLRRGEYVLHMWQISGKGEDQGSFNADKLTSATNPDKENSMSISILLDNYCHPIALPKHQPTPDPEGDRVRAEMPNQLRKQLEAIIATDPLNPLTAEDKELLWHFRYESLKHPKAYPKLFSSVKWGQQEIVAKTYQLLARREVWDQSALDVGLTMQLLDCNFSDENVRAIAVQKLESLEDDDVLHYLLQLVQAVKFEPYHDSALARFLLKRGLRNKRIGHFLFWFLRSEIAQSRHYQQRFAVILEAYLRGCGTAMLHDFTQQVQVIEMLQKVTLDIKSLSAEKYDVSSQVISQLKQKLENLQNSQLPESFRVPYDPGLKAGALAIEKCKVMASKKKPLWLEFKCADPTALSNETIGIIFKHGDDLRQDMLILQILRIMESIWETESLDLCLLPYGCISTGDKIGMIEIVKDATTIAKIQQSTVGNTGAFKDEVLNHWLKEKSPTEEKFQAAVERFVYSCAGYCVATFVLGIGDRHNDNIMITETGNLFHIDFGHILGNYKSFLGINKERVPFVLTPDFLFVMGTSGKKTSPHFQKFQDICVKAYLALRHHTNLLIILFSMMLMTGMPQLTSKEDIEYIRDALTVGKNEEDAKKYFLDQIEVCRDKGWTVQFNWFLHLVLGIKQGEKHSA
Sequence of UniProt P78368 (whole entry, looked up): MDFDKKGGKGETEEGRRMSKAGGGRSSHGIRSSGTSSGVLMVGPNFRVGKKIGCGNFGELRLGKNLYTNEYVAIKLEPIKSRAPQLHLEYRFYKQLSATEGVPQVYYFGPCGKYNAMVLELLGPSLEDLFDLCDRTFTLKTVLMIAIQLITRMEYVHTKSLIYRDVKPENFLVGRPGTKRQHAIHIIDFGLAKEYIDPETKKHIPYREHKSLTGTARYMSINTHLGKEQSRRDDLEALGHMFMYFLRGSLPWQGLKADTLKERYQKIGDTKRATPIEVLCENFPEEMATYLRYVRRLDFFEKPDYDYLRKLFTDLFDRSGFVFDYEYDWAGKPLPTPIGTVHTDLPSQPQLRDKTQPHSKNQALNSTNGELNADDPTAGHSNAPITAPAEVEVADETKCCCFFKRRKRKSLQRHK

Study 1
Structure (SMILES): CC[n+]1c(/C=C/N(C)c2ccccc2)n(-c2ccccc2)c2ccc(-c3nc4ccccc4s3)cc21
Effect on: enzyme activity
Mode: inhibitor
Tested at: 0.5 µM
Baseline: control
target | remaining activity [%]
Protein kinase C beta type, isoform beta-I (PRKCB, Homo sapiens, UniProt P05771) | 102
STK11 (Homo sapiens, UniProt Q15831) | 93.1
IKBKB (Homo sapiens, UniProt O14920) | 98.6
STK10 (Homo sapiens, UniProt O94804) | 101
DAPK1 (Homo sapiens, UniProt P53355) | 74.7
MAP3K3 (Homo sapiens, UniProt Q99759) | 109
IKBKE (Homo sapiens, UniProt Q14164) | 94.7
STK39 (Homo sapiens, UniProt Q9UEW8) | 81.1
Tyrosine-protein kinase Lyn, isoform B (LYN, Homo sapiens, UniProt P07948) | 110
CHEK2 (Homo sapiens, UniProt O96017) | 105
PRKACA (Homo sapiens, UniProt P17612) | 103
TGFBR2 (Homo sapiens, UniProt P37173) | 95.1
MAPK9 (Homo sapiens, UniProt P45984) | 94.6
TGFBR1 (Homo sapiens, UniProt P36897) | 102
DAPK2 (Homo sapiens, UniProt Q9UIK4) | 94.3
CAMK2D (Homo sapiens, UniProt Q13557) | 94
Cyclin-dependent kinase 5, with p25 (CDK5, Homo sapiens, UniProt Q00535) | 103
GRK3 (Homo sapiens, UniProt P35626) | 97.4
OXSR1 (Homo sapiens, UniProt O95747) | 94.2
cGMP-dependent protein kinase 1, isoform beta (PRKG1, Homo sapiens, UniProt Q13976) | 105
Cyclin-dependent kinase 4, with cyclin D1 (CDK4, Homo sapiens, UniProt P11802) | 107
PRKCA (Homo sapiens, UniProt P17252) | 77.7
NEK2 (Homo sapiens, UniProt P51955) | 100

Study 2
Compound: CNC(=O)Nc1ccc2c(c1)[C@@]1(CC2)OC(=O)N(CC(=O)N(Cc2ccc(F)cc2)[C@@H](C)C(F)(F)F)C1=O
Method: competition with immobilised ligand
Tested at: 1 µM
target | effect on | remaining binding [%]
GRK2 (Homo sapiens, UniProt P25098) | cell-free assay | 76
FLT4 (Homo sapiens, UniProt P35916) | cell-free assay | 100
CDK11B (Homo sapiens, UniProt P21127) | cell-free assay | 97
PIK3CA (Homo sapiens, UniProt P42336, H1047L) | cell-free assay | 96
MAPK4 (Homo sapiens, UniProt P31152) | cell-free assay | 98
FLT3 (Homo sapiens, UniProt P36888, R834Q) | cell-free assay | 96
PIP5K1A (Homo sapiens, UniProt Q99755) | cell-free assay | 89
SGK1 (Homo sapiens, UniProt O00141) | cell-free assay | 54
TEC (Homo sapiens, UniProt P42680) | binding | 100
MAPK6 (Homo sapiens, UniProt Q16659) | cell-free assay | 97
MAP3K7 (Homo sapiens, UniProt O43318) | cell-free assay | 81
RIPK2 (Homo sapiens, UniProt O43353) | cell-free assay | 83
DAPK1 (Homo sapiens, UniProt P53355) | cell-free assay | 100
TYRO3 (Homo sapiens, UniProt Q06418) | cell-free assay | 70
SYK (Homo sapiens, UniProt P43405) | cell-free assay | 82
TEK (Homo sapiens, UniProt Q02763) | cell-free assay | 100
CDK9 (Homo sapiens, UniProt P50750) | cell-free assay | 91
EPHA2 (Homo sapiens, UniProt P29317) | cell-free assay | 100
RET (Homo sapiens, UniProt P07949, V804M) | cell-free assay | 100
IGF1R (Homo sapiens, UniProt P08069) | cell-free assay | 100
CSNK1G2 (Homo sapiens, UniProt P78368) | cell-free assay | 100
SRPK3 (Homo sapiens, UniProt Q9UPE1) | cell-free assay | 100

Study 3
Cell line: HaCaT
Tested at: 100 µM
Time: 36 h
Compound | viability [%]
CCC(=O)NCC[C@@H]1CCc2ccc3c(c21)CCO3 | 87
CC1(C)O[C@@H]2C[C@H]3[C@@H]4CCC5=CC(=O)CC[C@]5(C)[C@@]4(F)[C@@H](O)C[C@]3(C)[C@]2(C(=O)CCl)O1 | 76.8
CN1CCOC(c2ccccc2)c2ccccc2C1 (centres unmarked) | 76.6
O=C(Nc1cccc2c(=O)cc(-c3nnn[nH]3)oc12)c1ccc(OCCCCc2ccccc2)cc1 | 18
Cc1cnc(C(=O)O)c[n+]1[O-] | 79.4
COc1ccc(-c2nc3ccc(C4=NNC(=O)CC4C)cc3[nH]2)cc1 (centres unmarked) | 9.11
CCc1cc2c(cc1N1CCC(N3CCOCC3)CC1)C(C)(C)c1[nH]c3cc(C#N)ccc3c1C2=O | 13.8
O=C(O)/C=C/c1ccc(Cn2ccnc2)cc1 | 105
CCC(=O)O[C@]1(C(=O)SCF)[C@H](C)C[C@H]2[C@@H]3C[C@H](F)C4=CC(=O)C=C[C@]4(C)[C@@]3(F)[C@@H](O)C[C@@]21C | 64.9
Clc1ccc2nsnc2c1NC1=NCCN1 | 87.5
CC(=O)O[C@H]1C[C@@]2(C)[C@@H](C[C@@H](O)[C@H]3[C@@]4(C)CC[C@@H](O)[C@@H](C)[C@@H]4CC[C@@]32C)/C1=C(\CCC=C(C)C)C(=O)O | 90.8
COc1ccc2cc(CCC(C)=O)ccc2c1 | 70.9
CCN(CC)CCCC(C)Nc1ccnc2cc(Cl)ccc12 (centres unmarked) | 4.68
COc1cc2c(Oc3ccc4[nH]c(C)cc4c3F)ncnc2cc1OCCCN1CCCC1 | 6.65

Study 4
SMILES: CC(C)S(=O)(=O)c1ccc2nccc(Nc3ccc4sc(C5CCCC5)nc4c3)c2c1
Effect on: enzyme activity
Mode: inhibitor
Tested at: 1 µM
target | activity vs control [%]
PIK3CG (Homo sapiens, UniProt P48736) | 83
ULK3 (Homo sapiens, UniProt Q6PHR2) | 92
RPS6KA1 (Homo sapiens, UniProt Q15418) | 89.5
PDGFRA (Homo sapiens, UniProt P16234) | 112
NEK6 (Homo sapiens, UniProt Q9HC98) | 94
CSNK2A1 (Homo sapiens, UniProt P68400) | 94

Repeated from above (study 2):
target | effect on | remaining binding [%]
GRK2 (Homo sapiens, UniProt P25098) | cell-free assay | 76
MAPK4 (Homo sapiens, UniProt P31152) | cell-free assay | 98
MAPK6 (Homo sapiens, UniProt Q16659) | cell-free assay | 97
FLT3 (Homo sapiens, UniProt P36888, R834Q) | cell-free assay | 96
PIP5K1A (Homo sapiens, UniProt Q99755) | cell-free assay | 89
TEC (Homo sapiens, UniProt P42680) | binding | 100
SRPK3 (Homo sapiens, UniProt Q9UPE1) | cell-free assay | 100
CSNK1G2 (Homo sapiens, UniProt P78368) | cell-free assay | 100
SGK1 (Homo sapiens, UniProt O00141) | cell-free assay | 54
